Assay results pooled from the literature.
Compare with care: the assays were run in different laboratories. “And” joins repeats or separate records; there may be more than shown. pEC50, pIC50: −log10 of the molar value.

SMILES	target or system	test	system	conditions	how to read	quantity	result
CN1CCCNC(=O)c2cccc(c2)C(=O)NCCCN(C)CCCNc2cccc3c2C(=O)c2cccc(c2C3=O)NCCC1	SAS	RNA-seq, measured: CALU mRNA	–	5 µM, 24 h	relative to: untreated cells	log2 fold change	-2.37
CC(C)c1ccc(N(C)c2ccc3c(c2)OCC[C@H]3CNc2cnccc2C(=O)O)cc1	TALL-1	cell growth or viability, ATP luminescence	–	7 days	–	pIC50	8.74
COc1ccccc1-c1ccncc1C(=O)Nc1nnc(OCc2ccc(Cl)cc2)s1	DLD-1 parental	–	–	2 µM	–	colony count	68 and 78 and 70 and 80 and 79
Cn1ncc2cc(-c3cncc(Cl)c3N3CCC4(CCNC4=O)CC3)ccc21	LS174T	gene expression, microarray, measured: CXCR4 mRNA	–	concentration not given, 4 h	relative to: untreated cells	log2 fold change	1.23
C=CC(=O)Nc1cccc(Cn2ncc3cnc(Nc4cnn(CCOC)c4)nc32)c1	CDK11 human	binding, KINOMEscan	–	100 nM	lower = stronger binding	percent of control	100%
CCN(CC)CC(=O)Nc1cccc(-n2cc(-c3ccc4ccc(-c5cn(-c6cccc(NC(=O)CN(CC)CC)c6)nn5)cc4c3)nn2)c1	RCC4	PCR angiogenesis array, measured: CCL11	–	5 x IC50, 4 h, normoxia	relative to: untreated	fold regulation	-1.29
Cc1nc(NCCOCCOCCOCCNc2ncc(C(=O)NC3=NN(c4ccc(Cl)c(Cl)c4)CC3)c(C)n2)ncc1C(=O)NC1=NN(c2ccc(Cl)c(Cl)c2)CC1	K562	cell growth or viability, ATP luminescence	–	72 h	–	pEC50	5.75
CNS(=O)(=O)Nc1nccc(Cc2c(C)c3ccc(Oc4ncccc4F)cc3oc2=O)c1F	MKN-7	cell viability	–	7 days	–	pIC50	7.28
CO[C@@H]1[C@@H](OC(N)=O)[C@@H](O)[C@H](Oc2ccc3c(O)c(NC(=O)c4ccc(O)c(CC=C(C)C)c4)c(=O)oc3c2C)OC1(C)C	DLD-1 BRCA2-/-	–	–	150 µM, replicate 2	–	colony count	0.1
Cc1ncsc1-c1ccc(C(C)NC(=O)C2CC(O)CN2C(=O)C(NC(=O)CCCCCCCCCCN2CCCC(Nc3ncc(Cl)c(Nc4ccccc4S(=O)(=O)C(C)C)n3)C2)C(C)(C)C)cc1 (centres unmarked)	22Rv1	RNA-seq, measured: MTRES1 mRNA	–	concentration not given	relative to: DMSO	log2 fold change	-1.19
COC1CN([C@H]2CC[C@H]([C@@]3(C)Oc4c(Cl)cc(C(=O)NCc5c(SC)cc(C)[nH]c5=O)c(C)c4O3)CC2)C1	–	RNA-seq, measured: SCARF2	human, whole blood	dose not given, 24 h	relative to: pretreatment baseline	log2 fold change	1.1
